Measurements from different studies.
Method: steady-state kinetics
B1: enzyme D423N/R186H/R7G (Gallus gallus, UniProt A0A8V0ZKC1); chain MAGPSGGARRLLLPLRLRPPPPIGPEPPCRTGSSAAAAAAGPARLKGPAELPGPGLLRTFVWLFLRGYLLHTHRLQLMSRRIYGPIWKSTFGHYQNINIGSPVVLEQLLRQEGKYPMRSDMALWKEHRDTRRLPYGPFTEEGERWYRLRQVLNKRLLKPSEAVLYADAIGEVVSDLMVRLRDERSHSPSGVLVGDVANLLYRFALEGISYILFETRIGCLKQQVPPETQHFIDSINLMFKNSIFATVLPRWSRKVLPFWDRYLDSWDTIFAFGKRLIDRKMKELEGHVEKGKEVSQGYLSYLLASGHLSLDEVYGSVAELLLAGVDTTSNTLCWALYHLSRDLGIQDTLYQELKAVVPPDRFPGAEDIPKMPMLRAVIKETLRVYPVVPTNARVFYEKDIVIGDYLFPKNTLFVLAHYAMSHNETYFPEPERFLPQRWLRGHGSPHHPFSSIPFGYGVRACVGRRIAELEMHLALARIIQAYEVRPDPRGVEVTSVSRIVLVADKPINLEFIARPGAP
B2: AOC3 (Homo sapiens, UniProt Q16853); chain MNQKTILVLLILAVITIFALVCVLLVGRGGDGGEPSQLPHCPSVSPSAQPWTHPGQSQLFADLSREELTAVMRFLTQRLGPGLVDAAQARPSDNCVFSVELQLPPKAAALAHLDRGSPPPAREALAIVFFGRQPQPNVSELVVGPLPHPSYMRDVTVERHGGPLPYHRRPVLFQEYLDIDQMIFNRELPQASGLLHHCCFYKHRGRNLVTMTTAPRGLQSGDRATWFGLYYNISGAGFFLHHVGLELLVNHKALDPARWTIQKVFYQGRYYDSLAQLEAQFEAGLVNVVLIPDNGTGGSWSLKSPVPPGPAPPLQFYPQGPRFSVQGSRVASSLWTFSFGLGAFSGPRIFDVRFQGERLVYEISLQEALAIYGGNSPAAMTTRYVDGGFGMGKYTTPLTRGVDCPYLATYVDWHFLLESQAPKTIRDAFCVFEQNQGLPLRRHHSDLYSHYFGGLAETVLVVRSMSTLLNYDYVWDTVFHPSGAIEIRFYATGYISSAFLFGATGKYGNQVSEHTLGTVHTHSAHFKVDLDVAGLENWVWAEDMVFVPMAVPWSPEHQLQRLQVTRKLLEMEEQAAFLVGSATPRYLYLASNHSNKWGHPRGYRIQMLSFAGEPLPQNSSMARGFSWERYQLAVTQRKEEEPSSSSVFNQNDPWAPTVDFSDFINNETIAGKDLVAWVTAGFLHIPHAEDIPNTVTVGNGVGFFLRPYNFFDEDPSFYSADSIYFRGDQDAGACEVNPLACLPQAAACAPDLPAFSHGGFSHN
B3: enzyme (Schizosaccharomyces pombe, UniProt P78804); chain MSTPYEPEFQQAYKEIVGSIESSKLFEVHPELKRVLPIISIPERVLEFRVTWEDDKGNCRVNTGYRVQFNSALGPYKGGLRFHPSVNLSILKFLGFEQIFKNALTGLPMGGGKGGSDFDPKGKSDNEIRRFSQAFMRQLFRYIGPQTDVPAGDIGVTGFVVMHMFGEYKRLRNEYSGVVTGKHMLTGGSNIRPEATGYGVVYYVKHMIEHRTKGAETLKGKRVAISGSGNVAQYAALKCIQEGAIVKSISDSKGVLIAKTAEGLVPEEIHEIMALKEKRASIADSASLCKKHHYIAGARPWTNVGEIDIALPCATQNEVSGEEAAALIKQGCRYVAEGSNMGSSAEAVEVFEKSRASGEGCWLAPGKAANAGGVAVSGLEMAQNAQFSTWTHAEVDAKLAGIMQNIFEQSTDVASKYCDSGSNNIPSLVDGANIAGFLKVATAMQAVGDWW
B4: enzyme (Haliscomenobacter hydrossis, UniProt F4KU78); chain MKQKPAFIPYAGAQFEPEEMLSKSAEYYQFMDHRRTVREFSNRAIPLEVIENIVMTASTAPSGAHKQPWTFVVVSDPQIKAKIRQAAEKEEFESYNGRMSNEWLEDLQPFGTDWHKPFLEIAPYLIVVFRKAYDVLPDGTQRKNYYVQESVGIACGFLLAAIHQAGLVALTHTPSPMNFLQKILQRPENERPFLLVPVGYPAEGAMVPDLQRKDKAAVMVVY
UniProt Q96C36, sequence (whole entry, unmodified, looked up): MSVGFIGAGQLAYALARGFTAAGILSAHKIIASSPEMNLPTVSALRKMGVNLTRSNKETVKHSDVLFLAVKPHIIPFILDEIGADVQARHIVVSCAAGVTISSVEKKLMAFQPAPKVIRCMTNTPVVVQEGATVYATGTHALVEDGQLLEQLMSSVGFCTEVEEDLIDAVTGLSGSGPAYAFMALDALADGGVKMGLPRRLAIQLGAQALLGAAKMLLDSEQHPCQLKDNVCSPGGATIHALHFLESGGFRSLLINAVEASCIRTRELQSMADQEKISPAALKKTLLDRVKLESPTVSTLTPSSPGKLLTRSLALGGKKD
UniProt Q5JHM5, sequence (whole entry, looked up): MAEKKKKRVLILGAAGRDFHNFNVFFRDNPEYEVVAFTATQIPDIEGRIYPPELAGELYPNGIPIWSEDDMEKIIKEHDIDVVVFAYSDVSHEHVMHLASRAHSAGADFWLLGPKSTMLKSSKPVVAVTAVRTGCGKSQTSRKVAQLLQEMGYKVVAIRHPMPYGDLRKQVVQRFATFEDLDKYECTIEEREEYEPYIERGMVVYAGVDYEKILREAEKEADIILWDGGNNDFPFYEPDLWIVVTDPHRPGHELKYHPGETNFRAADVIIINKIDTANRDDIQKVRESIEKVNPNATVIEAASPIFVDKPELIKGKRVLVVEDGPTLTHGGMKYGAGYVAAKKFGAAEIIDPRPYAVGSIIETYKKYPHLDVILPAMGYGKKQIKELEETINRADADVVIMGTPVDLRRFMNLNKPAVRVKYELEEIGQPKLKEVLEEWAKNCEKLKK
UniProt Q4U2R8, sequence (whole entry, looked up): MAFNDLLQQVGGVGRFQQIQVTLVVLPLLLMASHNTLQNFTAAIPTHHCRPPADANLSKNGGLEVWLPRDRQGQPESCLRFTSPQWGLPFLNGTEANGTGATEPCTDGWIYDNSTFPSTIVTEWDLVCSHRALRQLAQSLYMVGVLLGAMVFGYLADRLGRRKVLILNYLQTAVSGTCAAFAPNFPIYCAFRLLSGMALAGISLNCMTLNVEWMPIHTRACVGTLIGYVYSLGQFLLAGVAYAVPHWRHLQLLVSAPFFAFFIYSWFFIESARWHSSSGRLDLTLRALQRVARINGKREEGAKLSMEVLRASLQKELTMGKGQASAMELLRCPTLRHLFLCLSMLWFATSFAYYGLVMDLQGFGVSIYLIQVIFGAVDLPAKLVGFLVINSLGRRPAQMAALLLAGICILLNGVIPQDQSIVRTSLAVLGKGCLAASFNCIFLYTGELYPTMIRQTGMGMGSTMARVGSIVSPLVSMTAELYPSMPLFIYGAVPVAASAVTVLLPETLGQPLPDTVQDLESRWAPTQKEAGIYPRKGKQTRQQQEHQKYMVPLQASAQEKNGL

Substance | substrate | cells | pH | temperature | setting | together with | Km [µM]
spt R378K (Sphingomonas paucimobilis) | CCCCCCCCCCCC(=O)SCCNC(=O)CCNC(=O)[C@H](O)C(C)(C)COP(=O)(O)OP(=O)(O)OC[C@H]1O[C@@H](n2cnc3c(N)ncnc32)[C@H](O)[C@@H]1OP(=O)(O)O | – | – | – | – | PLP | 560
B1 (enzyme D423N/R186H/R7G) | C=C1CC[C@H](O)C/C1=C/C=C1\CCC[C@]2(C)[C@@H]([C@H](C)CCCC(C)C)CC[C@@H]12 | – | pH 7.4 | 37 °C | not purified | – | 4.93
enzyme (Thermococcus kodakarensis, UniProt Q5JHM5) | O=P(O)(O)O | – | pH 7.5 | 80 °C | – | – | 1500
PYCR2 (Homo sapiens, UniProt Q96C36) | NC(=O)C1=CN([C@@H]2O[C@H](COP(=O)(O)OP(=O)(O)OC[C@H]3O[C@@H](n4cnc5c(N)ncnc54)[C@H](OP(=O)(O)O)[C@@H]3O)[C@@H](O)[C@H]2O)C=CC1 | – | pH 7.5 | 37 °C | apparent, cofactor varied | DL-P5C 5000 µM | 216
gdh N192S/N97F (Bacillus subtilis) | NC(=O)c1ccc[n+]([C@@H]2O[C@H](COP(=O)(O)OP(=O)(O)OC[C@H]3O[C@@H](n4cnc5c(N)ncnc54)[C@H](O)[C@@H]3O)[C@@H](O)[C@H]2O)c1 | – | pH 7 | 55 °C | – | – | 220
B2 (AOC3) | NCc1cc2c(cc1F)C(=O)N(C1CCC(=O)NC1=O)C2 | – | pH 7.4 | 37 °C | recombinant | – | 674
SLC22A6 (Homo sapiens, UniProt Q4U2R8) | O=C(O)c1ccc(C(=O)O)c(-c2c3ccc(=O)cc-3oc3cc(O)ccc23)c1 | HEK293/hOAT1 | – | 37 °C | uptake, not purified | – | 13.7
B3 (enzyme) | NC(=O)C1=CN([C@@H]2O[C@H](COP(=O)(O)OP(=O)(O)OC[C@H]3O[C@@H](n4cnc5c(N)ncnc54)[C@H](OP(=O)(O)O)[C@@H]3O)[C@@H](O)[C@H]2O)C=CC1 | – | pH 7 | 30 °C | apparent | – | 53
B4 (enzyme) | N[C@@H](Cc1ccc(O)c(I)c1)C(=O)O | – | pH 7.4 | 25 °C | – | dithionite | 14

For quick reference, copied from above:
Substance | substrate | cells | pH | temperature | setting | together with | Km [µM]
spt R378K (Sphingomonas paucimobilis) | CCCCCCCCCCCC(=O)SCCNC(=O)CCNC(=O)[C@H](O)C(C)(C)COP(=O)(O)OP(=O)(O)OC[C@H]1O[C@@H](n2cnc3c(N)ncnc32)[C@H](O)[C@@H]1OP(=O)(O)O | – | – | – | – | PLP | 560
